{"data": "Assay results collected from several papers", "note": "Lines come from different studies, so protocols differ. Several values in a cell are separate wells, animals, samples, runs or records. ± marks the error that the study gave.", "sequence of UniProt P08684 (whole entry, looked up)": "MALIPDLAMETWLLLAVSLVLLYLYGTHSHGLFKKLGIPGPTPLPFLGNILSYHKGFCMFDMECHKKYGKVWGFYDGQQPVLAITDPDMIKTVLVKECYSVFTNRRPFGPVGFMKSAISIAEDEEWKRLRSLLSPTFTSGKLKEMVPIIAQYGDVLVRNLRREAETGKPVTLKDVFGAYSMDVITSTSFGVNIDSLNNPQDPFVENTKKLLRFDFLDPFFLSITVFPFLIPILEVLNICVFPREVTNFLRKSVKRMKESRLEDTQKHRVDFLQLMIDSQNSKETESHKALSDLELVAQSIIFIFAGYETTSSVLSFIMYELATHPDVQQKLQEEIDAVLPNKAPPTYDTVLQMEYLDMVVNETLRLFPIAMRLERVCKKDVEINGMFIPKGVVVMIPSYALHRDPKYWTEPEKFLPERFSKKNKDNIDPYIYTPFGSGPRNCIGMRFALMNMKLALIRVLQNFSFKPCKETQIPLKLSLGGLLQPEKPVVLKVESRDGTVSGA"}
{"SMILES": "COc1nc(-c2cc(C)c(N[C@@H](C)c3cc(F)cc(F)c3)nn2)ccc1-n1cnc(C)c1", "system": "cynomolgus monkey, male, plasma", "conditions": "intravenous, 1 mg/kg", "measurement": "Cmax", "value": "1320 ng/mL"}
{"SMILES": "O=C(NCCN1CCCC1)c1cc(-c2ccc(CN3CCOCC3)cc2)nc2ccc(F)cc12", "system": "NMRI mouse Plasmodium berghei-infected, blood", "conditions": "oral, 1.5 mg/kg, monotherapy", "measurement": "Cmax", "value": "191 nM"}
{"SMILES": "CN(C(=O)n1cnc(-c2ccc[n+]([O-])c2)c1)[C@H]1CC[C@H](O)CC1", "system": "cynomolgus monkeys, plasma", "conditions": "oral, 1.0 mg/kg", "measurement": "Cmax", "value": "23.5 ng/mL"}
{"SMILES": "C=CCn1c(=O)c2cnc(Nc3ccc(N4CCN(C)CC4)cc3)nc2n1-c1ccc2c(n1)[C@@](O)(CC)CC2", "system": "female NOD/SCID mouse OVCAR-3 xenograft, plasma", "conditions": "oral, 100 mg/kg once daily, :2", "measurement": "Cmax", "value": "6080 ng/mL"}
{"SMILES": "CN[C@H](CC(C)C)C(=O)N[C@H]1C(=O)N[C@@H](CC(N)=O)C(=O)N[C@H]2C(=O)N[C@H]3C(=O)N[C@H](C(=O)N[C@H](C(=O)O)c4cc(O)cc(O)c4-c4cc3ccc4O)[C@H](O)c3ccc(c(Cl)c3)Oc3cc2cc(c3O[C@@H]2O[C@H](CO)[C@@H](O)[C@H](O)[C@H]2O[C@H]2C[C@](C)(N)[C@H](O)[C@H](C)O2)Oc2ccc(cc2Cl)[C@H]1O", "system": "C57BL/6N mouse H3, faeces, wet weight", "conditions": "po, 0.5 mL, 20 mg/mL solution", "measurement": "Cmax", "value": "3.9 mg/g"}
{"SMILES": "CCN1CCN(Cc2ccc(Nc3ncc(F)c(-c4cc(F)c5nc6n(c5c4)[C@H](C)CCC6)n3)nc2)CC1", "system": "human, plasma", "conditions": "100 mg multiple dosing, mean", "measurement": "Cmax", "value": "173 ng/mL"}
{"SMILES": "CC[C@H](C)[C@@H]1NC(=O)[C@@](C)(NC(=O)[C@H](CCCNC(=N)N)NC(=O)[C@H](CC(C)C)NC(=O)[C@@H](NC(=O)[C@H](CCC(N)=O)NC(=O)[C@H](CC(C)C)NC(C)=O)[C@@H](C)O)CCCC=CCCC[C@@](C)(C(=O)N[C@@H](CC(C)C)C(=O)N[C@@H](Cc2ccc3ccccc3c2)C(N)=O)NC(=O)[C@H](CCCNC(=N)N)NC(=O)[C@H](CCC(N)=O)NC1=O", "system": "BALB/c mouse", "conditions": "intraperitoneal, 5 mg/kg", "measurement": "Cmax", "value": "19600 ng/mL"}
{"SMILES": "COc1ncc(-c2nc3c(n2C(C)C)[C@H](c2ccc(Cl)cc2)N(c2cc(Cl)cn(C)c2=O)C3=O)c(OC)n1", "assay": "LC-MS/MS, noncompartmental", "system": "human, plasma", "conditions": "oral, 150 mg, C1D8, high-dose, geometric mean", "measurement": "Cmax", "value": "1140 ng/mL"}
{"SMILES": "CC[C@H]1[C@@H](O)[C@@H]2[C@H](CC[C@]3(C)[C@@H]([C@H](C)CCNC(=O)NS(=O)(=O)c4ccc(C(C)(C)C)cc4)CC[C@@H]23)[C@@]2(C)CC[C@@H](O)C[C@@H]12", "tested on": "Cytochrome P450 3A4 (CYP3A4, Homo sapiens, UniProt P08684)", "system": "human, plasma", "conditions": "10 mg, day 1, compound alone", "measurement": "AUC(0-inf) mean", "value": "440 ng·h/mL"}
{"SMILES": "CCc1nc(C(N)=O)c(Nc2ccc(N3CCC(N4CCN(C)CC4)CC3)c(OC)c2)nc1NC1CCOCC1", "system": "Japanese patients, plasma", "conditions": "oral, 80 mg, cycle 1 day 28, multiple doses, median", "measurement": "Cmax", "value": "216 ng/mL"}
{"SMILES": "Cc1cc(Nc2ccc(S(F)(F)(F)(F)F)cc2)n2nc(C(C)(F)F)nc2n1", "tested on": "Plasmodium falciparum", "assay": "12-lead Holter ECG", "system": "human malaria patients", "conditions": "oral, 250 mg, QTc above 500 ms", "measurement": "patients with QTcB above threshold", "value": "0%"}
{"SMILES": "Cc1cc(N)c2c(OCC(C)(C)C(=O)NC(C)C)cccc2n1", "tested on": "Salmonella typhimurium", "assay": "reverse mutation, plate incorporation", "system": "TA98", "conditions": "50 µg/plate, with rat liver S9", "measurement": "mean revertant colonies", "value": "27 colonies/plate"}
{"SMILES": "CNC(=O)c1ccc(-c2cnc3ncc(Cc4ccc5ncccc5c4)n3n2)cc1F", "system": "human moderate hepatic impairment", "conditions": "oral, 200 mg single dose, covariate-adjusted geometric mean", "measurement": "Cmax", "value": "1440 ng/mL"}
{"SMILES": "CCOc1c([C@H](C)n2nc(C)c3c(N)ncnc32)cc(Cl)c(F)c1[C@@H]1CNC(=O)C1", "system": "patients, monotherapy", "conditions": "oral, 20 mg once daily, cycle 1 day 15", "measurement": "Cmax", "value": "1280 ± 437 nM"}
{"SMILES": "CCc1cc2c(N3CCN(c4nncs4)CC3)ncnc2s1", "tested on": "HBL-1", "conditions": "0.1 µM, 120 h", "measurement": "viability", "value": "136%"}
{"SMILES": "N#Cc1ccc2c(c1)[C@H]1CCCN(C(=O)c3ccc4[nH]cnc4c3)[C@H]1C2", "system": "human males", "conditions": "10 mg, day 7", "measurement": "SHBG level", "value": "38 nmol/L"}
{"SMILES": "CC(=O)Nc1cccc(-n2c(=O)n(C3CC3)c(=O)c3c(Nc4ccc(I)cc4F)n(C)c(=O)c(C)c32)c1", "tested on": "COLO 205", "assay": "resazurin", "conditions": "concentration not given, 72 h, unit not given", "scale": "baseline: DMSO", "measurement": "viability", "value": "0.285 and 0.154 and 0.991 and 0.288 and 0.192 and 0.356"}
{"SMILES": "COc1ccc2[nH]c([S+]([O-])Cc3ncc(C)c(OC)c3C)nc2c1 (stereo not drawn)", "system": "healthy Chinese volunteers, plasma", "conditions": "oral, 20 mg, fasted, CYP2C19 rapid metabolizers", "measurement": "Cmax", "value": "191 ng/mL"}
{"SMILES": "CCn1cc(C(=O)N2CCOCC2)c(=O)c2cc(NC3Cc4ccccc4C3)cnc21", "system": "human, fasted", "conditions": "oral suspension, 15 mg single dose, arithmetic mean", "measurement": "Cmax", "value": "116 ng/mL"}
{"SMILES": "CN1CCC[C@H](CN2c3ccccc3Sc3ccccc32)C1.Cl", "system": "fasted female ICR mouse, kidney", "conditions": "oral, 16 mg/kg", "measurement": "Cmax", "value": "0.00381 mg/g"}
{"SMILES": "Cn1cc(-c2ccc(-c3cncc(Cl)c3N3CCC4(CCNC4=O)CC3)cc2)cn1", "tested on": "COLO 205", "assay": "gene expression, microarray, measured: HIST1H4A mRNA", "conditions": "concentration not given, 6 h", "scale": "baseline: untreated cells", "measurement": "log2 fold change", "value": -1.8}
{"note": "For quick reference, copied from above:"}
{"SMILES": "CCc1cc2c(N3CCN(c4nncs4)CC3)ncnc2s1", "tested on": "HBL-1", "conditions": "0.1 µM, 120 h", "measurement": "viability", "value": "136%"}
{"SMILES": "CCN1CCN(Cc2ccc(Nc3ncc(F)c(-c4cc(F)c5nc6n(c5c4)[C@H](C)CCC6)n3)nc2)CC1", "system": "human, plasma", "conditions": "100 mg multiple dosing, mean", "measurement": "Cmax", "value": "173 ng/mL"}
{"SMILES": "CC[C@H](C)[C@@H]1NC(=O)[C@@](C)(NC(=O)[C@H](CCCNC(=N)N)NC(=O)[C@H](CC(C)C)NC(=O)[C@@H](NC(=O)[C@H](CCC(N)=O)NC(=O)[C@H](CC(C)C)NC(C)=O)[C@@H](C)O)CCCC=CCCC[C@@](C)(C(=O)N[C@@H](CC(C)C)C(=O)N[C@@H](Cc2ccc3ccccc3c2)C(N)=O)NC(=O)[C@H](CCCNC(=N)N)NC(=O)[C@H](CCC(N)=O)NC1=O", "system": "BALB/c mouse", "conditions": "intraperitoneal, 5 mg/kg", "measurement": "Cmax", "value": "19600 ng/mL"}
